Published values gathered from unrelated publications.
Each numbered part is a random draw from the data of one study; scales do not carry over between parts.

Study 1
Target: Serine/threonine-protein kinase PknB (pknB, Mycobacterium tuberculosis, UniProt P9WI81)
Chain of UniProt P9WI81 (whole entry, looked up): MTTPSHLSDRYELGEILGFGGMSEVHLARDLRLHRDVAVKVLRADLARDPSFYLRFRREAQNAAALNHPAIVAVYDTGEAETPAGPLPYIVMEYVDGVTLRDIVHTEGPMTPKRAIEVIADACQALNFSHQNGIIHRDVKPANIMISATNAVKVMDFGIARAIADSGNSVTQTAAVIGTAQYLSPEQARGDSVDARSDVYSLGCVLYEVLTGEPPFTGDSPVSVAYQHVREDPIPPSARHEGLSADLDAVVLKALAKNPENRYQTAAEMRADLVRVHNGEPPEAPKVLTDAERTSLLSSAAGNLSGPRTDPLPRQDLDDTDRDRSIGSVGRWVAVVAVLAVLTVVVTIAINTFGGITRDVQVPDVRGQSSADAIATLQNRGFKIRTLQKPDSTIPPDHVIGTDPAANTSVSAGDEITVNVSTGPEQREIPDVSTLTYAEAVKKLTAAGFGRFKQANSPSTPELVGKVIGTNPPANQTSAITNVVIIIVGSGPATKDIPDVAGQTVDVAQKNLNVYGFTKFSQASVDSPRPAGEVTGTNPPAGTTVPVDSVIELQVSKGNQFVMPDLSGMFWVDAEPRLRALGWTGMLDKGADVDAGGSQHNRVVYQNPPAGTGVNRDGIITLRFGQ
Observed: cell-free assay
Technique: competition with immobilised ligand
Concentration: 1 µM
Endpoint: remaining binding
CN([C@@H]1CCc2c(CC(=O)O)c3cc(S(C)(=O)=O)ccc3n2C1)S(=O)(=O)c1ccc(F)cc1: 100%
CN(C(=O)c1ccccc1)c1cc(N(C)c2ccc3c(c2)CCc2ccc(C(=O)NCCN4CCOCC4)cc2C3=O)ccc1F: 88%
O=C(Nc1cccnn1)N1CC(C/C=C/c2cncc(Oc3ccc(C(F)(F)F)cn3)n2)C1: 87%

Study 2
Target: Beta-1 adrenergic receptor (ADRB1, Homo sapiens, UniProt P08588)
Chain of UniProt P08588 (whole entry, looked up): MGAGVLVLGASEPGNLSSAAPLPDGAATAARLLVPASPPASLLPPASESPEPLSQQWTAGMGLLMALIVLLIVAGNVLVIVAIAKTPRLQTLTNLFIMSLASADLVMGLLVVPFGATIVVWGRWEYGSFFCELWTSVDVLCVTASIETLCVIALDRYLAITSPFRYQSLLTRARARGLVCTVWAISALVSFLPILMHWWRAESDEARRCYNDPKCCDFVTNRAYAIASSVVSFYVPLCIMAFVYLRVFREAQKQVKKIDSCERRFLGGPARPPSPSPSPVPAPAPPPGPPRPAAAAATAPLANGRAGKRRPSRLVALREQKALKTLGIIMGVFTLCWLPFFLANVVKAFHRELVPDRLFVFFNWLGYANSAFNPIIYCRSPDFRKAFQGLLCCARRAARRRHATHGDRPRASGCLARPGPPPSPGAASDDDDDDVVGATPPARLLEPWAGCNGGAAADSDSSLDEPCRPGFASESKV
Action: agonist
Endpoint: EC50
Cc1nn(CC(=O)NCc2ccc(N(C)C)cc2)c(=O)c2nc(C(C)C)sc12: ≥ 100 µM
CC(C)NC(=O)c1cc(-c2cccs2)nc2ccccc12: ≥ 100 µM
Cn1ccnc1C(O)c1cc2n(n1)CCN(c1ncnc3[nH]cnc13)C2 (stereo not drawn): ≥ 100 µM
N[C@H](Cc1cscn1)C(=O)Nc1cccc(-c2nn3c(=O)cc(N4CCNCC4)nc3s2)c1: ≥ 100 µM
O=C1c2ccccc2C(=O)N1c1ccc2ccccc2n1: ≥ 100 µM
COc1ccc(-c2ccc3ccccc3n2)c(OC)c1OC: ≥ 100 µM
Cc1cc(C(=O)N2CCc3c(nc(C)nc3N(C)C)C2)c2cccc(C)c2n1: ≥ 100 µM
CC(C)Oc1ccc(C(=O)N[C@H](CNC(=O)CN(C)C)Cc2ccc(-c3cn4cccc([C@H](C)O)c4n3)cc2)cc1Cl: ≥ 100 µM

Study 3
Target: Calcium/calmodulin-dependent protein kinase type II subunit alpha (CAMK2A, Homo sapiens, UniProt Q9UQM7)
Chain of UniProt Q9UQM7 (whole entry, looked up): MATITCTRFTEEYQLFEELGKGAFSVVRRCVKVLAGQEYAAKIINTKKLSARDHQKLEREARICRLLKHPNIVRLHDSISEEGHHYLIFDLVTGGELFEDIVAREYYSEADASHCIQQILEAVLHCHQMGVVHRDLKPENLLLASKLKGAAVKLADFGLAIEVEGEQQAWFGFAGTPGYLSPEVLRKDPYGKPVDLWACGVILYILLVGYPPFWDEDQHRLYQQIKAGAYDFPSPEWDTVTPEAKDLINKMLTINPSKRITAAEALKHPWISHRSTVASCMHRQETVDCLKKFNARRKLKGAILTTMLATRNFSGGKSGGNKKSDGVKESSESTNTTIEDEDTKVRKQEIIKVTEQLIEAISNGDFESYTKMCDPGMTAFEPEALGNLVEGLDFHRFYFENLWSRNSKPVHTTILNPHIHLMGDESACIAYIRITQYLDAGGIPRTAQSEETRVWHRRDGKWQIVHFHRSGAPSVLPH
Observed: enzyme activity
Action: inhibitor
Concentration: 10 µM
Endpoint: inhibition
CC=CC1=C(C(=O)O)N2C(=O)[C@@H](NC(=O)[C@H](N)c3ccc(O)cc3)[C@H]2SC1 (mixture of isomers): -6%
NC(=O)c1ccc[n+]([O-])c1: -3%
CO[C@@H]1[C@H](N(C)C(=O)c2ccccc2)C[C@H]2O[C@]1(C)n1c3ccccc3c3c4c(c5c6ccccc6n2c5c31)C(=O)NC4: 40%
Cc1ccc(-c2cc(C(F)(F)F)nn2-c2ccc(S(N)(=O)=O)cc2)cc1: -1%
Nc1ccc(-c2ccccc2)cn1: -43%
CC(C)CCC[C@@H](C)[C@H]1CC[C@H]2[C@@H]3CC[C@H]4CC(=O)CC[C@]4(C)[C@H]3CC[C@]12C: -7%
CCn1c(=O)c(-c2cc(NC(=O)Nc3ccccc3)c(F)cc2Br)cc2cnc(NC)cc21: -7%
S=P(N1CC1)(N1CC1)N1CC1: 3%

Other studies, line by line
AAAVRKPIVLKR
binding enrichment score (human cyclin D1; peptide binding, yeast competitive growth sequencing; peptide, Saccharomyces cerevisiae, cyclin D1-Cln2 fusion; concentration not given, peptide tiling library; relative to: Cln2 fusion control, direction not given): 1.09

CC[C@@H](C(=O)[C@@H](C)[C@@H](O)[C@H](C)CCc1ccc(C)c(O)c1C(=O)O)[C@H]1O[C@](CC)([C@H]2CC[C@](O)(CC)[C@H](C)O2)C[C@@H]1C
parasite load (Plasmodium berghei; Huh-7, liver stage; 10 µM, 24 h; relative to: control): 2.83%

A few entries again (study 2):
O=C1c2ccccc2C(=O)N1c1ccc2ccccc2n1: ≥ 100 µM
COc1ccc(-c2ccc3ccccc3n2)c(OC)c1OC: ≥ 100 µM
Cc1cc(C(=O)N2CCc3c(nc(C)nc3N(C)C)C2)c2cccc(C)c2n1: ≥ 100 µM
